Values quoted from earlier work, collected from citations in different studies.
Protocols differ between the studies behind these lines.
UniProt Q96RR4, sequence (whole entry, looked up): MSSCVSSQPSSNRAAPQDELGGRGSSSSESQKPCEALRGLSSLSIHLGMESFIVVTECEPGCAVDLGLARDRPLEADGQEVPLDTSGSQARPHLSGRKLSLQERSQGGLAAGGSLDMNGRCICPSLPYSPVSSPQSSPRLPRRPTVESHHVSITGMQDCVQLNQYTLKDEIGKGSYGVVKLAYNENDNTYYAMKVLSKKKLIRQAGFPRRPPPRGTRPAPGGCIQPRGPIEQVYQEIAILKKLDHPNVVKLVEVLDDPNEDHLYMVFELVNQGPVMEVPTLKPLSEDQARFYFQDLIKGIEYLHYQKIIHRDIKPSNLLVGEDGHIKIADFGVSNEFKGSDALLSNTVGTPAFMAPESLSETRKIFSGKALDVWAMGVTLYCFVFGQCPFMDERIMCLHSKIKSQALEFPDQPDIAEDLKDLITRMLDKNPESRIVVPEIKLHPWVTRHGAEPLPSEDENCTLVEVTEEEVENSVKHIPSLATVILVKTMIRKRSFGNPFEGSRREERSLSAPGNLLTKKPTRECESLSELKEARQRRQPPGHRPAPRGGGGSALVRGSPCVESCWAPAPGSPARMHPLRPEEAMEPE

CNC(C)C1CCC(N)C(OC2C(N)CC(N)C(OC3OCC(C)(O)C(NC)C3O)C2O)O1 (stereo not shown)
MIC (Acinetobacter baumannii; clinical isolate RKI-No_271/16): > 8 µg/mL

Nc1ccn([C@H]2CC[C@@H](CO)O2)c(=O)n1
oral bioavailability (human): 93%

CC1(C)S[C@@H]2[C@H](NC(=O)[C@H](N)c3ccccc3)C(=O)N2[C@H]1C(=O)O
MIC (Acinetobacter baumannii; clinical isolate RKI-No_523/16): > 16 µg/mL

NC(=O)N1c2ccccc2CC(O)c2ccccc21 (stereo not shown)
oral bioavailability (healthy adult humans; oral): ~100%

COC(=O)Nc1nc2ccc(C(=O)c3ccccc3)cc2[nH]1
oral bioavailability (human; oral): 12 to 35%

Nc1ccn([C@H]2CO[C@@H](CO)S2)c(=O)n1
oral bioavailability (human): 80%

CN/C(=N/CCSCc1nc[nH]c1C)NC#N
oral bioavailability (human): 60 to 70%

COCCc1ccc(OCC(O)CNC(C)C)cc1 (stereo not shown)
oral bioavailability (human): 50%

CC(C)(C)NCC(O)c1cc(O)cc(O)c1 (stereo not shown)
oral bioavailability (human; oral): 11%

COc1ccc2[nH]c([S+]([O-])Cc3ncc(C)c(OC)c3C)nc2c1 (stereo not shown)
oral bioavailability (human): 40 to 60%

CCc1cc2c(cc1CC)CC(NC[C@H](O)c1ccc(O)c3[nH]c(=O)ccc13)C2
oral bioavailability (human; oral): 20%

CC(C)[C@H](N)C(=O)OCC(CO)OCn1cnc2c(=O)[nH]c(N)nc21 (stereo partly shown)
oral bioavailability (human): 32%

Cn1c(=O)c2c(ncn2C)n(C)c1=O
oral bioavailability (human): 100%

O=C(O)[C@H]1/C(=C/CO)O[C@@H]2CC(=O)N21
oral bioavailability (human adults; oral): 60%

Cc1[nH]c2ccccc2c1CCNCc1ccc(/C=C/C(=O)NO)cc1
oral bioavailability (human; oral, dose not given): 21%

Nc1cc(C(F)(F)F)c(-c2nc(N3CCOCC3)nc(N3CCOCC3)n2)cn1
remaining activity (CAMKK2 (Homo sapiens, UniProt Q96RR4); enzyme activity; 10 µM; reference: untreated): 100%
